Measurements of several laboratories.
Every numbered part comes from another study and shows a few of its results, in no order. Changes are numbered by the printed parent chain.
UniProt Q8IW41, sequence (whole entry, looked up): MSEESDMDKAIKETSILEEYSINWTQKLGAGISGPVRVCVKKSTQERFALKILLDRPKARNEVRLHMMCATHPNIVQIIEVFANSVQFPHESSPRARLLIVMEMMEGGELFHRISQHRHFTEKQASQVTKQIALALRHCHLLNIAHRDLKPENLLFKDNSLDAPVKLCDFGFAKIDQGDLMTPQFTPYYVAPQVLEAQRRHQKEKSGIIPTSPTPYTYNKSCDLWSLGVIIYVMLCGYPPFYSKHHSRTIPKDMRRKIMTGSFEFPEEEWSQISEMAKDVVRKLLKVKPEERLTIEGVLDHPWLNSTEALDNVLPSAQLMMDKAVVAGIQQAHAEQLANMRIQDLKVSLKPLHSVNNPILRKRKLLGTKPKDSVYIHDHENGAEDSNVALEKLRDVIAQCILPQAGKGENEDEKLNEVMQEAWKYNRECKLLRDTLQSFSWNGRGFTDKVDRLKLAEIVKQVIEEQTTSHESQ
UniProt Q15835, sequence (whole entry, looked up): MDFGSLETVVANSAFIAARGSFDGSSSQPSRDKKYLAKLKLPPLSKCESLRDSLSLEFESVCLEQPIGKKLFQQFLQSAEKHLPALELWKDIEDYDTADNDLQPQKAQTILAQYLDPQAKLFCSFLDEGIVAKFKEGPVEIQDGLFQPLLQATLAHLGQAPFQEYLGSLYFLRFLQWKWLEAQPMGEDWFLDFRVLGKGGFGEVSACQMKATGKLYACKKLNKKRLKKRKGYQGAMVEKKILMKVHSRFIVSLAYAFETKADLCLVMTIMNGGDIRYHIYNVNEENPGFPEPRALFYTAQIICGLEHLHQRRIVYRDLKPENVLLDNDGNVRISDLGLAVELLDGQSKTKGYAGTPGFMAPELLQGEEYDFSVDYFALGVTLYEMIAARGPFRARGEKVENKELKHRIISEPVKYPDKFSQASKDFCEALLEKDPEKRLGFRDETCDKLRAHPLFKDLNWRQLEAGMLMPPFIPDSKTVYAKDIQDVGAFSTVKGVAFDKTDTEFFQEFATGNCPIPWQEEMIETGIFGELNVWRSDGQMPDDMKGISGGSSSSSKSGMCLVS
UniProt Q09013, sequence (whole entry, looked up): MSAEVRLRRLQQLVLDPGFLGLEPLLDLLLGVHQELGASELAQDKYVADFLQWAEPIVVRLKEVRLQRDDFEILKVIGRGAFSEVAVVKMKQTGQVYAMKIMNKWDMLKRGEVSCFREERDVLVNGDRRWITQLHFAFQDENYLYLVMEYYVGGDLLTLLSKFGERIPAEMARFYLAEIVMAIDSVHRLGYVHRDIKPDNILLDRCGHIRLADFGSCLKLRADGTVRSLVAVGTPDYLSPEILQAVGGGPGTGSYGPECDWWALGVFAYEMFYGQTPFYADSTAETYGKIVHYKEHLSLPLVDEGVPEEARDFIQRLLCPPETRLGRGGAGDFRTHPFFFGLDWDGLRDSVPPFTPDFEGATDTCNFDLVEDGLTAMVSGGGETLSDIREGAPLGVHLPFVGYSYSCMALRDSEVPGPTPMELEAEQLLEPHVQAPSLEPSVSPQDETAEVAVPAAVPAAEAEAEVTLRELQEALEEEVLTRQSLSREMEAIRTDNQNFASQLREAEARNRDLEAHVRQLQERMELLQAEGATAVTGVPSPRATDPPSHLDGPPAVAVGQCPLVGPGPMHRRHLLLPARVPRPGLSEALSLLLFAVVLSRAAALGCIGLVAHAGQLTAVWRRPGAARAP
UniProt P48730, sequence (whole entry, looked up): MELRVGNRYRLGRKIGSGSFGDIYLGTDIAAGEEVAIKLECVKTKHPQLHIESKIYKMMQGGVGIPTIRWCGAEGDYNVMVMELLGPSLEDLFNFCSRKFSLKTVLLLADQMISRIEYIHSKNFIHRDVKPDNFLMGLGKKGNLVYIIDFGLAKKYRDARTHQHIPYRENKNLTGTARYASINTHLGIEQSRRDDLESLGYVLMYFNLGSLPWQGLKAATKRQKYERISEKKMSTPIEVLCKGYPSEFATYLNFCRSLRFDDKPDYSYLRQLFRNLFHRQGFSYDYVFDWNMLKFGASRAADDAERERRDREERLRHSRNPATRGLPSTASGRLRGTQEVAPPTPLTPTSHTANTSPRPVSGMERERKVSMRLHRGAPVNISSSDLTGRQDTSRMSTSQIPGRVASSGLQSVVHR
UniProt P41595, sequence (whole entry, looked up): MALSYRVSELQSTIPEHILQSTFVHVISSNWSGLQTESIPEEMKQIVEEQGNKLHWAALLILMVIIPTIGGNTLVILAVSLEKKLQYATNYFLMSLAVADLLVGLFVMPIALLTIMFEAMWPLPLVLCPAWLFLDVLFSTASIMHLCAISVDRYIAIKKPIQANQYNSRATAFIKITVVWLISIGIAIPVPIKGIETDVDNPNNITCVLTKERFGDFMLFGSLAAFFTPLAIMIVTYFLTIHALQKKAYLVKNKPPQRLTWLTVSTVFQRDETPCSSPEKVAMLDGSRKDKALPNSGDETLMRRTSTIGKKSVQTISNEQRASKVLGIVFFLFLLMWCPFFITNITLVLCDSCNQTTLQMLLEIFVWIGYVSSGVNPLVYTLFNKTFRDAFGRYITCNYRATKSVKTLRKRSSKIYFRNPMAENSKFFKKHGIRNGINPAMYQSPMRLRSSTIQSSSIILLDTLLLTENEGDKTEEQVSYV
UniProt P35968, sequence (whole entry, looked up): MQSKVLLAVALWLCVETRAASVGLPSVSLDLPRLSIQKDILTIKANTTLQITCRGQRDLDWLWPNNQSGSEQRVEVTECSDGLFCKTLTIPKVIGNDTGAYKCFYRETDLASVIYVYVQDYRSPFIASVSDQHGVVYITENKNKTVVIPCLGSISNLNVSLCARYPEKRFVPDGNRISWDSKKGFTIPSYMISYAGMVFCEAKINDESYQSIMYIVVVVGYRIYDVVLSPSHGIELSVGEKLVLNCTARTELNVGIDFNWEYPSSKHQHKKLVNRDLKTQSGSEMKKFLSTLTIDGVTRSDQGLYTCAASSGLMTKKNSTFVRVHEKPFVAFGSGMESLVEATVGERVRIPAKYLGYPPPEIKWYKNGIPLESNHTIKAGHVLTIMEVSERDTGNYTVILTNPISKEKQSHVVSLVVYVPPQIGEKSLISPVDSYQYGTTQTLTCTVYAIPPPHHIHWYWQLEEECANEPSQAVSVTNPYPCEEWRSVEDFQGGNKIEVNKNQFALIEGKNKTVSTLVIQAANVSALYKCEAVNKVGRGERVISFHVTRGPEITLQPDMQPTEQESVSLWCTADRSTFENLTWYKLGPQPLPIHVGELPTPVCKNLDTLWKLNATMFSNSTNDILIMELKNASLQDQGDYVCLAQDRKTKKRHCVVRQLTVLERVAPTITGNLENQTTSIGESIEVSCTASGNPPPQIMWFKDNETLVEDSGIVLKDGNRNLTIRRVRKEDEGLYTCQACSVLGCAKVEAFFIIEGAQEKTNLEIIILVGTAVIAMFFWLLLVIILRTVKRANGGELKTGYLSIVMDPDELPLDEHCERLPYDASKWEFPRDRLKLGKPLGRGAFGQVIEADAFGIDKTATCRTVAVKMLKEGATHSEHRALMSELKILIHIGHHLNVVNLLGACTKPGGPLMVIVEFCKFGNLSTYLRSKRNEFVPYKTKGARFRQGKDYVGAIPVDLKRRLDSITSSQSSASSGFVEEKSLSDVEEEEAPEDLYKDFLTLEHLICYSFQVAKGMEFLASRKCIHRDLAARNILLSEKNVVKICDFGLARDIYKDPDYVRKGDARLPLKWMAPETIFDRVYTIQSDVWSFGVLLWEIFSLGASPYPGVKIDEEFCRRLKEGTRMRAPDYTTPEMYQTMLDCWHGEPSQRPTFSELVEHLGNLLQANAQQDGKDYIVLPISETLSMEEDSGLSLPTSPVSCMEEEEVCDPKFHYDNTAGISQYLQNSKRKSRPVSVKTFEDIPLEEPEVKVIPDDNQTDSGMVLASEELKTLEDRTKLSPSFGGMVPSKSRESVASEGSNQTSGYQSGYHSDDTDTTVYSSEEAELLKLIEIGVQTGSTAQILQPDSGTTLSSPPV

Study 1
Target: tungstate, free oxyanion
Technique: microfluidic competitive inhibition
Matrix: in vitro, cell-free expressed
Concentration: not given
Setting: derived from inhibition constants, unchanged parent 2230 nM
Direction: lower = stronger binding
Quantity: oxyanion analog dissociation constant
Parent: PafA, mature enzyme, eGFP fusion (Elizabethkingia meningoseptica, UniProt Q9KJX5); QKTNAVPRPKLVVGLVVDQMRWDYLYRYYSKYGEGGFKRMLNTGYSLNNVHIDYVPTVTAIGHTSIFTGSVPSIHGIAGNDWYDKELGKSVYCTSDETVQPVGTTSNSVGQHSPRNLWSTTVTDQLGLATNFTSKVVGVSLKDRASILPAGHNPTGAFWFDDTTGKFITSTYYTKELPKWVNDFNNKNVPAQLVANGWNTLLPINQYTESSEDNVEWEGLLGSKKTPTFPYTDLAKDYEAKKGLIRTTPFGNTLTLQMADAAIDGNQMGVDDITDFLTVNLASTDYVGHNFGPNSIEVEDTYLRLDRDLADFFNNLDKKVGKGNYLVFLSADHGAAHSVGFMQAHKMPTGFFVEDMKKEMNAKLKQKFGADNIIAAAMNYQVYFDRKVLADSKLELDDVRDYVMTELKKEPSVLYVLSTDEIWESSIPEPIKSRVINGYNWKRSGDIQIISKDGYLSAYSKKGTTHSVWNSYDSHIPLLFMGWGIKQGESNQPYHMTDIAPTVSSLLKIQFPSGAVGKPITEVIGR
S474V: 1.16 µM
S425G: 2.37 µM
K363V: 2.61 µM
A370V: 2.51 µM
F160V: 2.29 µM
Y29G: 2.24 µM
S433G: 1.73 µM
F384V: 1.35 µM

Study 2
Target: CCND2, cyclin fold, Cln2 fusion (human)
Technique: yeast growth competition, sequencing
Matrix: yeast
Setting: weak parent motif
Relative to: not given
Direction: higher = stronger binding
Quantity: normalised enrichment score
Parent: viral docking peptide; TSVRRALFTGGSD; partner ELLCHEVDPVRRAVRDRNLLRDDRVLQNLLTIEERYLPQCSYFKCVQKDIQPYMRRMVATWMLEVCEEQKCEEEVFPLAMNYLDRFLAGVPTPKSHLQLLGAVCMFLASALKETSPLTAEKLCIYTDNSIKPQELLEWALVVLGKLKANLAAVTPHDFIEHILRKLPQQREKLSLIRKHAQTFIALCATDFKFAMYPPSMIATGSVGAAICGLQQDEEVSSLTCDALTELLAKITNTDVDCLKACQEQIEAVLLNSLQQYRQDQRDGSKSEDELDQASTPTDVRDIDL
G11A: -0.0866
G11Q: 0.0558
R5P: -0.0729
G10H: -0.17
A6D: 0.106
S12C: -0.0182
R4A: 0.06
S2P: 0.0324

Study 3
Compound: COC(=O)c1cc(N(C)C(=O)c2ccn3ncc(-c4ccc(C(=O)O)cc4)c3c2)ccc1Cl
Quantity: IC50
5-hydroxytryptamine receptor 2B (HTR2B, Homo sapiens, UniProt P41595); cell-free assay: > 30 µM
human phosphodiesterase 3; enzyme activity: > 30 µM
Estrogen receptor (ESR1, Homo sapiens, UniProt P03372); cell-free assay: > 30 µM
5-hydroxytryptamine receptor 1A (HTR1A, Homo sapiens, UniProt P08908); cell-free assay: > 30 µM
MAP kinase-activated protein kinase 5 (MAPKAPK5, Homo sapiens, UniProt Q8IW41); enzyme activity, inhibitor: > 30 µM
Rhodopsin kinase GRK1 (GRK1, Homo sapiens, UniProt Q15835); enzyme activity, inhibitor: > 30 µM
Casein kinase I isoform delta (CSNK1D, Homo sapiens, UniProt P48730); enzyme activity, inhibitor: > 30 µM
Myotonin-protein kinase (DMPK, Homo sapiens, UniProt Q09013); enzyme activity, inhibitor: > 30 µM
Vascular endothelial growth factor receptor 2 (KDR, Homo sapiens, UniProt P35968); enzyme activity, inhibitor: > 30 µM

Other studies, line by line
CO[C@@H]1[C@H](N(C)C(=O)c2ccccc2)C[C@H]2O[C@]1(C)n1c3ccccc3c3c4c(c5c6ccccc6n2c5c31)C(=O)NC4
inhibition (Dual specificity tyrosine-phosphorylation-regulated kinase 1B (DYRK1B, Homo sapiens, UniProt Q9Y463); cell-free assay, inhibitor; 1 µM): 93%

Repeated from above (study 2):
A6D: 0.106
S12C: -0.0182
R4A: 0.06
S2P: 0.0324
